Assay results collected from several papers.
Parts stem from different laboratories: compare values within a part only. Positions count from the first letter of the parent shown.

Block 1
Target: Histone acetyltransferase KAT6A, winged helix 1, GST fusion (KAT6A, Homo sapiens, UniProt Q92794, residues 1-85)
Method: protein binding microarray
Form: double-stranded DNA, one strand shown
Matrix: in vitro
Concentration: not given
Setting: 8-mer, flanks averaged, mean of 2 arrays, mostly near background
Reference: not given
Direction: higher = stronger binding
Measurement: E-score
Construct (chain): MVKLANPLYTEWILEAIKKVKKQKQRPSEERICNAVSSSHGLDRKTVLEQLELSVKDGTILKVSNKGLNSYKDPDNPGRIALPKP
AGTGAATC: -0.277
AGTTGGTG: -0.117
ACCCCTGA: -0.0963
GCAGTTTA: -0.00917
CACCTGCA: -0.298

Block 2
Target: RING finger protein unkempt homolog, zinc fingers 1-6, GST-SBP tag (UNK, Homo sapiens, UniProt Q9C0B0, residues 30-357)
Method: RNA Bind-n-Seq
Form: RNA
Matrix: in vitro
Concentration: not given
Setting: RNA with constant flanks, human and mouse sites, ends assumed
Reference: input RNA pool
Direction: higher = stronger binding
Measurement: bound/input enrichment
All sequences stand within: GGGAGUUCUACAGUCCGACGAUC … CAACAGAGGAUUGAGCAUCA
Construct (chain): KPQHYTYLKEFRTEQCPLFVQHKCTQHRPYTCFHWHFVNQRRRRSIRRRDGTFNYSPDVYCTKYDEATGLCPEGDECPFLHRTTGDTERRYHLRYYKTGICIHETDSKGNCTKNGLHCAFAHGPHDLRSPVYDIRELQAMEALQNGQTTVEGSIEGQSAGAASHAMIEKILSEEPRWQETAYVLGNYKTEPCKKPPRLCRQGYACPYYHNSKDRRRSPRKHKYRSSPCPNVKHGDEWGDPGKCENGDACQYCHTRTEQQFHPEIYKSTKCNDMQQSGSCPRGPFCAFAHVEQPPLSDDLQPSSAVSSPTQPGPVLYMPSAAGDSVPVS
CUUGCGGUGGCGUAAUCUCUCAGCCUUUCUGUGUCUCCUUUCCUCCGCCUCAGUUUGGGGCGGGUCGGGGGAAUGGCUGAGGAGAUGGAGUCGUCGCUCGAGGCAAGCUUUUCGUCCAGC: 0.0804 ratio
AGGGAGAGUCAAGAACUGAGAUCUCUGGGCAAGUGGAACCCAGAGACUGUGGAAUCACCAGGAGGGGUGGAGGACAGUCAGCAGUGCCUGGAAGUGGAAGAGGGCCCGGAGAGGGAGCAG: 0.511 ratio
UAUUAUUUAUUAUAGCAUUUUUGAUACCUCAUAUUCUGUUUACACAUCUUGAAAGGCGCUCAGUAGUUCUCUUACUAAACAACCACUACUCCAGAGAAUGGCAACGCUGAUUACCAGUAC: 7.94 ratio
AUGAUGAUUUUCAUUGAAGCAUCUUCAGAAAAUCCUUGUAGUCUUUACUCUUCUGUCUGUUACAGCCCCCAAGCAGAAAAAGUUUACAAGUUAUGUAGCCCACCAGCUGAUUUGCAUAAG: 0.252 ratio
UUGUAUCGCUCUUACCAUAUGCCUGUUUGCAAAUCAUGAUCUUCACUGGGCUGGAAUUUUAUUAGAUUUUUGUUUUGUUUUUCCCUUUUUUCUCCUAGGCUGUCACUCUGUUGUUCUCCC: 68.1 ratio

Other studies, line by line
P1: PKMYT1 docking peptide (human); SFEPRNLLSLFED; partner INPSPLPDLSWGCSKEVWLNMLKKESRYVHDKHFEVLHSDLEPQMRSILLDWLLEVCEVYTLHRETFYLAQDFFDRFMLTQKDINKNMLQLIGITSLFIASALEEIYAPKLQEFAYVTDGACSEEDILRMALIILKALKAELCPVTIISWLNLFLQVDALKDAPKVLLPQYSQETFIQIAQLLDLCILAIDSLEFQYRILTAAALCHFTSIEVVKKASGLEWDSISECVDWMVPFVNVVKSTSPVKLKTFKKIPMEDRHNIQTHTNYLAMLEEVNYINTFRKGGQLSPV
PhoQ, residues 284 288 289 292 302 303 ALASRC — fold induction (PhoP, residues 12 14 15 18 19 AQALL (Escherichia coli, UniProt P23836); Sort-seq, item: YFP reporter; E. coli; PhoQ-PhoP variant library, added: 10 µM Mg2+; reference: high Mg2+ state, higher = stronger signaling): 7.4
P1 P4Q — normalised enrichment score (CCNE2, cyclin fold, Cln2 fusion (human); yeast growth competition, sequencing; yeast; weak parent motif; reference: not given, higher = stronger binding): -0.058
